Measured values from different studies.
Compare with care: the assays were run in different laboratories. Values joined by “and” are separate records of one study, mostly repeats; a detail may differ. Numbers after ± are the reported error.
Species: human

N#Cc1ccc2c(c1)[C@H]1CCCN(C(=O)c3ccc4[nH]cnc4c3)[C@H]1C2  AUC(tau) steady state (plasma; oral, 240 mg once daily, steady state): 142 µM·h
CC(C)(C)OC[C@@H]1C(=O)NCCN1C(=O)C[C@H](N)Cc1cc(F)c(F)cc1F  AUC(tau) at steady state (plasma; oral, dose not given, EP treatment, added: empagliflozin): 94.8 ± 21.9 ng·h/mL
Cc1ncnc2c1ccn2[C@@H]1C[C@H](Oc2cc(C(F)F)c(F)c3c2CNCC3)[C@@H](O)[C@H]1O  AUC(tau) (plasma; 8 mg once daily): 694 ng·h/mL and 1550 ng·h/mL
OC[C@H]1O[C@@H](c2ccc(Cl)c(Cc3ccc(O[C@H]4CCOC4)cc3)c2)[C@H](O)[C@@H](O)[C@@H]1O  AUC(tau) at steady state (plasma; oral, dose not given, EV treatment): 3040 ± 656 ng·h/mL
C[C@@H](Nc1cc(F)cc(F)c1)c1cc(C(=O)N(C)C)cc2c(=O)cc(N3CCOCC3)oc12  AUC(tau) (oral, 120 mg twice daily, dose-finding arm, geometric LSM, added: abiraterone 1000 mg): 4410 ng·h/mL
COCCc1ccc(OCC(O)CNC(C)C)cc1 (centres unmarked)  AUC(tau) (measured: sum of R and S enantiomers; plasma; oral, 100 mg single dose): 504 ng·h/mL
CS(=O)(=O)CCNCc1ccc(-c2ccc3ncnc(Nc4ccc(OCc5cccc(F)c5)c(Cl)c4)c3c2)o1  AUC(tau) (plasma; 1250 mg/day, steady state, calculated): 41200 ng·h/mL
Cc1cc(OCCOCCC(F)(F)P(=O)(O)O)ccc1CCc1cnc2c(N)nc3cc(CCC(=O)O)ccc3c2c1  AUC(tau) (serum; intratumoral, 400 µg every 2 weeks, cycle 2 day 15): 29.1 ng·h/mL

For quick reference, copied from above:
Cc1cc(OCCOCCC(F)(F)P(=O)(O)O)ccc1CCc1cnc2c(N)nc3cc(CCC(=O)O)ccc3c2c1  AUC(tau) (serum; intratumoral, 400 µg every 2 weeks, cycle 2 day 15): 29.1 ng·h/mL
